{"data": "Measurements pooled from the literature", "note": "Parts stem from different laboratories: compare values within a part only. Values joined by “and” are separate records of one study, mostly repeats; a detail may differ.", "sequence of UniProt P42681 (whole entry, looked up)": "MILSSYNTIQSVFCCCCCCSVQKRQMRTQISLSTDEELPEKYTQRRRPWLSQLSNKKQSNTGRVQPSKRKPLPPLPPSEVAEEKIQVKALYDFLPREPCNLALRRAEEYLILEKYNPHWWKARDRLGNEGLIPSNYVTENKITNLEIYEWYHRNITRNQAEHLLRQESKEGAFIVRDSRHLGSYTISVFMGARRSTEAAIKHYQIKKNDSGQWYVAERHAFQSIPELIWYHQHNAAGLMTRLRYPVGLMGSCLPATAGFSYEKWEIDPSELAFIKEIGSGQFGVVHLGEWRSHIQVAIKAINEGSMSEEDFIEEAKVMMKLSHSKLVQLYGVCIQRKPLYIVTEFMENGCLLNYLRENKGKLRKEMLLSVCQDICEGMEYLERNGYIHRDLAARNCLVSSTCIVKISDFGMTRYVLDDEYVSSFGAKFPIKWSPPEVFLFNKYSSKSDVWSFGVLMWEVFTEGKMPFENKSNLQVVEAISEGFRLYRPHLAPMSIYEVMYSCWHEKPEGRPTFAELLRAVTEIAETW", "sequence of UniProt Q9BVS4 (whole entry, looked up)": "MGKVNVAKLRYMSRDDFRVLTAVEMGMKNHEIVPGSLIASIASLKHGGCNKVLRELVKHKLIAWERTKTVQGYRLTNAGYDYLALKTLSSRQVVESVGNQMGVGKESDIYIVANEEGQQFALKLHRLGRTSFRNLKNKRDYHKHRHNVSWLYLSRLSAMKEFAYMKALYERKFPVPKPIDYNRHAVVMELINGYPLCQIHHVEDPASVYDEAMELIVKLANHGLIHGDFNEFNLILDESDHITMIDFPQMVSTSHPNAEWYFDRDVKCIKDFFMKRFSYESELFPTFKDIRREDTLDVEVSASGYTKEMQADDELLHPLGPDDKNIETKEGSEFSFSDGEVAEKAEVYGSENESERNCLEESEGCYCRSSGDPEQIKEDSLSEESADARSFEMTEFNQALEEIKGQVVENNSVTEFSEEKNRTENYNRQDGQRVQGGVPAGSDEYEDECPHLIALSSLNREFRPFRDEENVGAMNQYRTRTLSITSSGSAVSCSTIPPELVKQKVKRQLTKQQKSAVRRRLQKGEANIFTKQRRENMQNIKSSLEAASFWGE", "sequence of UniProt P57078 (whole entry, looked up)": "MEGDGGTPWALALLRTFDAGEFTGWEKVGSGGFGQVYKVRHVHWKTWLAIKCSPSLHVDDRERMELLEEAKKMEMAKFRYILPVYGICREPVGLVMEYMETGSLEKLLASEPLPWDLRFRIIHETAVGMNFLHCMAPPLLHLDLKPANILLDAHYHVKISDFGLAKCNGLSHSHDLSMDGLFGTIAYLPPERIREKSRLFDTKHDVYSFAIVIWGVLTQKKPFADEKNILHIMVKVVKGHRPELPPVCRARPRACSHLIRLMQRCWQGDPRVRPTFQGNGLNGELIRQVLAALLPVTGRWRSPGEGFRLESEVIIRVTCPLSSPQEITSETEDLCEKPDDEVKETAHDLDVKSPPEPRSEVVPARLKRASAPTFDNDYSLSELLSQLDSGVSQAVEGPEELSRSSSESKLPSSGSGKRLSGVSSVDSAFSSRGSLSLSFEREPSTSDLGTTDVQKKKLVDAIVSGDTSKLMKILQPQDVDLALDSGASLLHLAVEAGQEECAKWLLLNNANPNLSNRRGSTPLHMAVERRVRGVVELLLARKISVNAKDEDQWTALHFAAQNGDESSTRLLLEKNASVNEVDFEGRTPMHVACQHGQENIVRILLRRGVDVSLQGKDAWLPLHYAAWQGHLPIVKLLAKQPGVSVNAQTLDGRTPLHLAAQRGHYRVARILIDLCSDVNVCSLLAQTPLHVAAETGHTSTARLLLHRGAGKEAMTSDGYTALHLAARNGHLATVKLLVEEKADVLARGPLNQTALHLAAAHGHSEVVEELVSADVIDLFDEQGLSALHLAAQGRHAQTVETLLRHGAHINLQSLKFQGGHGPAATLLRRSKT", "sequence of UniProt O15530 (whole entry, looked up)": "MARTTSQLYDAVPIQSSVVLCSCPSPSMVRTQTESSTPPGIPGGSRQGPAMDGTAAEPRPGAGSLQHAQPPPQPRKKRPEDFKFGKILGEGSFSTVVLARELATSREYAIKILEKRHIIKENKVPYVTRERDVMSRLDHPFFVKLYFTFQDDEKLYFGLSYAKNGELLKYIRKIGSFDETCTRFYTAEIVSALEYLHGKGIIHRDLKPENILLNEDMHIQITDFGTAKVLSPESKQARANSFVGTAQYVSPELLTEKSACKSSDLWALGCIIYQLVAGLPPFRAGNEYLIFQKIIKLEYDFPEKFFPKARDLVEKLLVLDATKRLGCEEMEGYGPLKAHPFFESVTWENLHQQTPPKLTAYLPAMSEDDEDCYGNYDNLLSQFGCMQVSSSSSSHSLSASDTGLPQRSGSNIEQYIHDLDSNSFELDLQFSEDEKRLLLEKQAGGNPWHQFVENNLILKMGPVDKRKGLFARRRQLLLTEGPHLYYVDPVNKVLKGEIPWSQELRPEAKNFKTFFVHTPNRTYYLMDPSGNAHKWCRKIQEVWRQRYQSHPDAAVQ", "sequence of UniProt P11309 (whole entry, looked up)": "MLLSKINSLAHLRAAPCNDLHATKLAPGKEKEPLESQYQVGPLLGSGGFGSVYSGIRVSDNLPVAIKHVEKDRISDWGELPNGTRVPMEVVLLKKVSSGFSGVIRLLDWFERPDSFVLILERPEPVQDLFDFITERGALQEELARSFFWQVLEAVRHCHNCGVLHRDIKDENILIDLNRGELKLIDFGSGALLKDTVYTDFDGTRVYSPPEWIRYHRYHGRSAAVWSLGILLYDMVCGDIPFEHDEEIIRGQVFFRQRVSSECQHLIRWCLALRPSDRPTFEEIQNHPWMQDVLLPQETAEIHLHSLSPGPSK", "sequence of UniProt P45983 (whole entry, looked up)": "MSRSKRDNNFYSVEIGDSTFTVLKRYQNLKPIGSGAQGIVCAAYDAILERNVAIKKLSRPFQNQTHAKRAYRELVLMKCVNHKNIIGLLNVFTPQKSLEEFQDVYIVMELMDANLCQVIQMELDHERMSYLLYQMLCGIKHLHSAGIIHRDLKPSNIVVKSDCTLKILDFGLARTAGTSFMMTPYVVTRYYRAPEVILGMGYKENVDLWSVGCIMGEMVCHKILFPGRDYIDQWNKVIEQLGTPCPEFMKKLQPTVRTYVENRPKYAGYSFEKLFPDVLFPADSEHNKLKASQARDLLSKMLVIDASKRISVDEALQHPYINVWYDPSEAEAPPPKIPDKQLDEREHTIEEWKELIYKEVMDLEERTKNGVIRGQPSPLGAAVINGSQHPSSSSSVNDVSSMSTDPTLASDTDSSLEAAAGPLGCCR", "sequence of UniProt Q13470 (whole entry, looked up)": "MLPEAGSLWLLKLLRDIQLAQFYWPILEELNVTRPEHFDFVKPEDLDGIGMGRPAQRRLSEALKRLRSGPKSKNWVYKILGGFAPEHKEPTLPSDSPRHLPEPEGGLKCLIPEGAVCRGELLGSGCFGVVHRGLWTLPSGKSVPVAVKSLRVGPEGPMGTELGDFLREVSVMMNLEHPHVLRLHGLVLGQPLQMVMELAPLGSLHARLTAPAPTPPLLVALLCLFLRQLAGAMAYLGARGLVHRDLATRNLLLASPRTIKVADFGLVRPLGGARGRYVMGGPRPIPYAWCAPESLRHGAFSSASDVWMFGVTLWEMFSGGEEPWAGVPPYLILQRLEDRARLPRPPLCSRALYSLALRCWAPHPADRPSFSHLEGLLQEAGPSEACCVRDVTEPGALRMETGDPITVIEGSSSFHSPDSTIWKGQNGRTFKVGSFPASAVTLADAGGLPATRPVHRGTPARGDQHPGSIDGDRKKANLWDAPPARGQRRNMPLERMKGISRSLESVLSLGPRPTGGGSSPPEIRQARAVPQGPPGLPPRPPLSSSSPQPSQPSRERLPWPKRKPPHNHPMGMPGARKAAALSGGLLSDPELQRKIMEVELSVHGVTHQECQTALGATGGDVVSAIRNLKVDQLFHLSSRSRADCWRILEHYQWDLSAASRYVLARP", "sequence of UniProt Q06187 (whole entry, looked up)": "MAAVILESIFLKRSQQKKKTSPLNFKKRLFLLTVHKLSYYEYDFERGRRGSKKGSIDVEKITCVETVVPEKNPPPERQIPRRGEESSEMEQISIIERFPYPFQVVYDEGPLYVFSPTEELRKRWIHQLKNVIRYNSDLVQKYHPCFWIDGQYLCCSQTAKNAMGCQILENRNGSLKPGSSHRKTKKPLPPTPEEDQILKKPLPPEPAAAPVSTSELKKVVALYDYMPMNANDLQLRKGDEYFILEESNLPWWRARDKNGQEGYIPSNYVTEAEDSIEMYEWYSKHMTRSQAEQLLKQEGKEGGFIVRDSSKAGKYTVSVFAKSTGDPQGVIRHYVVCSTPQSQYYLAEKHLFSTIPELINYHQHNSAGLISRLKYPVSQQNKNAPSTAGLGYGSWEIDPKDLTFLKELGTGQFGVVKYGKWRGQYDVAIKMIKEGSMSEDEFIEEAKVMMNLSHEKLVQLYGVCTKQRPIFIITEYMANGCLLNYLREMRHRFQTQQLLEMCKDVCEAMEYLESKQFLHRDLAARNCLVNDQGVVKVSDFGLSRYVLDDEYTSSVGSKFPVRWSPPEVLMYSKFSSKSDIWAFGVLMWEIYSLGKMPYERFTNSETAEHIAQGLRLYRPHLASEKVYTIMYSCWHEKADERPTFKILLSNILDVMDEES"}
{"data": "Series 1", "target": "MAP kinase-activated protein kinase 5 (MAPKAPK5, Homo sapiens, UniProt Q8IW41)", "effect on": "enzyme activity", "action": "inhibitor", "concentration": "0.5 µM", "reference": "control", "sequence of UniProt Q8IW41 (whole entry, looked up)": "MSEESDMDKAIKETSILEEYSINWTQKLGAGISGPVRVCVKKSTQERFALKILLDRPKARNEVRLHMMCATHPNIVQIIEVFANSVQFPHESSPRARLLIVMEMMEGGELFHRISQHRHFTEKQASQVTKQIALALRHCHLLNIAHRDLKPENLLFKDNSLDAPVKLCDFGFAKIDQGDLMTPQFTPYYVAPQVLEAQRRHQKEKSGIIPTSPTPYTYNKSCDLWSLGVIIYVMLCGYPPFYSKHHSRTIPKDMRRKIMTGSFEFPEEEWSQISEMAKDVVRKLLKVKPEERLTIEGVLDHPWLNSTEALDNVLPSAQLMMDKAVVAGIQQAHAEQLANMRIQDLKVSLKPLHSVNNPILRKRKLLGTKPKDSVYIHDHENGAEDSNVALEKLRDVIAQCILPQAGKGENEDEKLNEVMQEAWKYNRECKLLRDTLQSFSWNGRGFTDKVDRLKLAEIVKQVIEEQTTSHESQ"}
{"Compound": "COc1ccc(S(=O)(=O)N(CCO)c2ccccc2CN(C)CC=Cc2ccc(Cl)cc2)cc1", "remaining activity": "100%"}
{"Compound": "Nc1ncnc2c1cnn2-c1ccccc1", "remaining activity": "87.1%"}
{"Compound": "CCCC(=O)Oc1ccc2[nH]c(C(=O)c3cc4ccccc4[nH]3)cc2c1", "remaining activity": "101%"}
{"Compound": "Fc1ccc(-c2nc3n(c2-c2ccncc2)CCS3)cc1", "remaining activity": "97.2%"}
{"Compound": "N#CC(=C(N)Sc1ccc(N)cc1)c1ccccc1C(F)(F)F", "remaining activity": "89.9%"}
{"Compound": "Oc1ccc(Nc2nc(-c3ccc(Cl)cc3)cs2)cc1", "remaining activity": "96.8%"}
{"Compound": "CSc1nc(-c2ccnc(N[C@@H](C)c3ccccc3)c2)c(-c2ccc(F)cc2)[nH]1 (racemic)", "remaining activity": "115%"}
{"Compound": "CCc1[nH]c(-c2ccc(OC)cc2)nc1-c1ccncc1", "remaining activity": "95.2%"}
{"Compound": "O=S(=O)(NCCNC/C=C/c1ccc(Br)cc1)c1cccc2cnccc12", "remaining activity": "90.2%"}
{"Compound": "Cc1cncc2cccc(S(=O)(=O)N3CCCN(C(=O)CN)C[C@@H]3C)c12", "remaining activity": "94.2%"}
{"Compound": "Nc1nccc(-c2c(-c3ccc(F)cc3)ncn2C2CCNCC2)n1", "remaining activity": "94%"}
{"Compound": "CC[n+]1c(/C=C/N(C)c2ccccc2)n(-c2ccccc2)c2ccc(-c3nc4ccccc4s3)cc21", "remaining activity": "96.8%"}
{"Compound": "O=C1Cc2c([nH]c3ccc([N+](=O)[O-])cc23)-c2ccccc2N1", "remaining activity": "92.7%"}
{"Compound": "Cc1ccc(NC2=CC(=O)c3sc(C)nc3C2=O)cc1", "remaining activity": "108%"}
{"Compound": "COc1cc(Nc2c(C#N)cnc3cc(OCCCN4CCN(C)CC4)c(OC)cc23)c(Cl)cc1Cl", "remaining activity": "94.7%"}
{"Compound": "NC(=O)c1ccc(N(C(N)=O)c2c(F)cccc2F)nc1-c1ccc(F)cc1F", "remaining activity": "93.4%"}
{"Compound": "Nc1nc(Nc2ccc(S(N)(=O)=O)cc2)nn1C(=O)c1c(F)cccc1F", "remaining activity": "80.3%"}
{"Compound": "CC(=O)c1ccc(N2CCOCC2)cc1O", "remaining activity": "96.9%"}
{"Compound": "CC#CC(=O)Nc1cc2c(Nc3ccc(F)c(Cl)c3)ncnc2cn1", "remaining activity": "96.3%"}
{"Compound": "Cc1cc(Nc2nc(-c3ccccc3)nc3ccccc23)n[nH]1", "remaining activity": "93.2%"}
{"Compound": "CC(C)(C)n1nc(Cc2cccc3ccccc23)c2c(N)ncnc21", "remaining activity": "95.7%"}
{"Compound": "O=C1NC(=O)C(c2c[nH]c3ccccc23)=C1c1c[nH]c2ccccc12", "remaining activity": "119%"}
{"data": "Series 2", "Compound": "CS(=O)(=O)c1cc(C2(NC(=O)c3cncc4c3cnn4-c3ccc(F)cc3)CC2)ccn1", "effect on": "cell-free assay", "technique": "competition with immobilised ligand", "concentration": "1 µM"}
{"target": "NEK7 (Homo sapiens, UniProt Q8TDX7)", "remaining binding": "100%"}
{"target": "ITK (Homo sapiens, UniProt Q08881)", "remaining binding": "89%"}
{"target": "LRRK2 (Homo sapiens, UniProt Q5S007, G2019S)", "remaining binding": "100%"}
{"target": "DSTYK (Homo sapiens, UniProt Q6XUX3)", "remaining binding": "70%"}
{"target": "STK32C (Homo sapiens, UniProt Q86UX6)", "remaining binding": "81%"}
{"target": "PRKACA (Homo sapiens, UniProt P17612)", "remaining binding": "100%"}
{"target": "RIPK4 (Homo sapiens, UniProt P57078)", "remaining binding": "87%"}
{"target": "PDPK1 (Homo sapiens, UniProt O15530)", "remaining binding": "100%"}
{"target": "RET (Homo sapiens, UniProt P07949, V804M)", "remaining binding": "97%"}
{"target": "CDKL3 (Homo sapiens, UniProt Q8IVW4)", "remaining binding": "96%"}
{"target": "CSNK1G2 (Homo sapiens, UniProt P78368)", "remaining binding": "100%"}
{"target": "TNK1 (Homo sapiens, UniProt Q13470)", "remaining binding": "80%"}
{"target": "CDK7 (Homo sapiens, UniProt P50613)", "remaining binding": "90%"}
{"target": "RIOK2 (Homo sapiens, UniProt Q9BVS4)", "remaining binding": "94%"}
{"target": "EGFR (Homo sapiens, UniProt P00533, L861Q)", "remaining binding": "100%"}
{"target": "PIP5K1A (Homo sapiens, UniProt Q99755)", "remaining binding": "100%"}
{"target": "DYRK2 (Homo sapiens, UniProt Q92630)", "remaining binding": "95%"}
{"target": "PRKACB (Homo sapiens, UniProt P22694)", "remaining binding": "100%"}
{"target": "PIKFYVE (Homo sapiens, UniProt Q9Y2I7)", "remaining binding": "79%"}
{"target": "BTK (Homo sapiens, UniProt Q06187)", "remaining binding": "97%"}
{"target": "PIM1 (Homo sapiens, UniProt P11309)", "remaining binding": "100%"}
{"target": "MAPK8 (Homo sapiens, UniProt P45983)", "remaining binding": "95%"}
{"target": "TXK (Homo sapiens, UniProt P42681)", "remaining binding": "89%"}
{"target": "MARK4 (Homo sapiens, UniProt Q96L34)", "remaining binding": "100%"}
{"target": "EGFR (Homo sapiens, UniProt P00533, L858R)", "remaining binding": "100%"}
{"data": "Series 3", "host": "mouse", "matrix": "microsomes or S9", "concentration": "2 µM", "time": "0.5 h"}
{"Structure (SMILES)": "CC(c1ccccc1Cl)N1CCN(Cc2cc[nH]n2)CC1 (stereo not drawn)", "remaining compound": "3.95%"}
{"Structure (SMILES)": "CNCc1cccc(Br)c1OCCS(C)(=O)=O", "remaining compound": "70%"}
{"Structure (SMILES)": "CC(=O)COc1cc(N2C(=O)C(C)=C(C)C2=O)c(F)cc1Cl", "remaining compound": "17.6%"}
{"Structure (SMILES)": "COc1ccccc1Nc1ccc(-n2ccnc2-c2ccncc2)cc1", "remaining compound": "27.1%"}
{"Structure (SMILES)": "COC(=O)Cc1cc(=O)n2nc(C)c(-c3ccc(F)cc3)c2[nH]1", "remaining compound": "0.643%"}
{"Structure (SMILES)": "CN1N=C(c2ccc(-n3cncn3)cc2)CC1c1cnn(C)c1 (stereo not drawn)", "remaining compound": "59.1%"}
{"Structure (SMILES)": "Cc1cc(C)c(C)c(S(=O)(=O)N2CCN(CCc3cn(C)nn3)CC2)c1C", "remaining compound": "8.63%"}
{"Structure (SMILES)": "CCn1nc(C)c(CNc2nc(N)nc3nc[nH]c23)n1", "remaining compound": "94.9%"}
{"Structure (SMILES)": "COc1ccc(N(C)C(=O)c2cc(S(=O)(=O)N3CCc4ccccc43)cn2C)c(OC)c1", "remaining compound": "< 1%"}
{"Structure (SMILES)": "N#Cc1c(NC(=O)c2n[nH]c(-n3cnnc3)n2)sc2c1CCCC2", "remaining compound": "> 100%"}
{"Structure (SMILES)": "COc1cccc(-c2csc3[nH]cnc(=O)c23)c1", "remaining compound": "1.37%"}
{"Structure (SMILES)": "Cc1cccc(NC(=N)/N=c2\\nc(O)c(Cc3ccccc3)c(C)[nH]2)c1", "remaining compound": "43.9%"}
{"Structure (SMILES)": "O=C(C1CC(=O)N(C2CCCC2)C1)N1CCC(c2nnc3n2CCNC3)CC1 (stereo not drawn)", "remaining compound": "86.9%"}
{"Structure (SMILES)": "COC(=O)c1ccc(-c2noc(C(C)C)n2)cc1Cl", "remaining compound": "0%"}
{"Structure (SMILES)": "COC(=O)CC1C(=O)NCCN1S(=O)(=O)c1ccc(F)c(Cl)c1 (stereo not drawn)", "remaining compound": "54.5%"}
{"Structure (SMILES)": "CCCN(CCC)c1nc(N)nc(-c2noc(C)n2)n1", "remaining compound": "5.62%"}
{"data": "Series 4", "cell line": "A-375", "concentration": "100 µM", "time": "18 h"}
{"SMILES": "Cc1ccc(C(=O)c2ccc(CC(=O)O)n2C)cc1", "viability": "97.5%"}
{"SMILES": "O=C1OC2(c3ccc(O)cc3Oc3cc(O)ccc32)c2ccccc21", "viability": "186%"}
{"SMILES": "O=C(O)C1=CO[C@@H](O[C@@H]2O[C@H](CO)[C@@H](O)[C@H](O)[C@H]2O)[C@@H]2C(CO)=CC[C@H]12", "viability": "92.6%"}
{"SMILES": "O=c1ccc2ccc(OCCCCN3CCN(c4cccc5sccc45)CC3)cc2[nH]1", "viability": "12.6%"}
{"SMILES": "OC[C@H]1O[C@@H](n2cnc3c(O)ncnc32)[C@H](O)[C@@H]1O", "viability": "92.2% and 86.1%"}
{"SMILES": "COc1cc(C(C)=O)ccc1OCCCN1CCC(c2noc3cc(F)ccc23)CC1", "viability": "50.8%"}
{"SMILES": "Nc1ccn([C@@H]2CS[C@H](CO)O2)c(=O)n1", "viability": "97.9%"}
{"SMILES": "COc1ccc2c(c1)c(CC(=O)OCC(=O)O)c(C)n2C(=O)c1ccc(Cl)cc1", "viability": "85.5%"}
{"SMILES": "CC(C)(F)C[C@H](N[C@@H](c1ccc(-c2ccc(S(C)(=O)=O)cc2)cc1)C(F)(F)F)C(=O)NC1(C#N)CC1", "viability": "91.2%"}
{"SMILES": "CCC(=O)O[C@@H](O[P@](=O)(CCCCc1ccccc1)CC(=O)N1C[C@H](C2CCCCC2)C[C@H]1C(=O)O)C(C)C", "viability": "98.4%"}
{"SMILES": "NCCc1c[nH]cn1", "viability": "96.7%"}
{"SMILES": "CCOc1cc(N)c(Cl)cc1C(=O)NCC1CN(Cc2ccc(F)cc2)CCO1 (stereo not drawn)", "viability": "115%"}
{"SMILES": "CN(C)CC[C@@H](c1ccc(Cl)cc1)c1ccccn1", "viability": "96.9%"}
{"SMILES": "NCCCCCC(=O)O", "viability": "87%"}
{"SMILES": "CC(C)Oc1ccc2c(=O)c(-c3ccccc3)coc2c1", "viability": "82.2%"}
{"SMILES": "Oc1ncnc2[nH]ncc12", "viability": "97.5%"}
{"SMILES": "CC(=O)[C@@]1(O)CC[C@H]2[C@@H]3CCC4=CC(=O)CC[C@]4(C)[C@H]3CC[C@@]21C", "viability": "89%"}
{"SMILES": "Cc1cc(NS(=O)(=O)c2ccc(N)cc2)nc(C)n1", "viability": "95.7%"}
{"SMILES": "Nc1nnc(-c2cccc(Cl)c2Cl)c(N)n1", "viability": "105%"}
{"SMILES": "C[C@@H]1CC(=O)NN=C1c1ccc(NN=C(C#N)C#N)cc1", "viability": "96.1%"}
{"SMILES": "CC(C)(C(=O)c1cccnc1)c1cccnc1", "viability": "101%"}
{"SMILES": "NC(=O)NO", "viability": "85.7%"}
{"SMILES": "c1ccc(CC2=NCCN2)cc1", "viability": "65.2%"}
{"SMILES": "CC(=O)NO", "viability": "105%"}
